{"data": "Published values collected from several papers", "note": "Several values in a cell are separate wells, animals, samples, runs or records. ± gives the spread as reported."}
{"Compound": "Cc1cc(C(=O)Nc2nc3cccc(C)c3n2[C@H]2CCCCN(C(=O)/C=C/CN(C)C)C2)ccn1", "organism": "Trypanosoma brucei", "assay": "propidium iodide flow cytometry", "test system": "bloodstream form", "conditions": "concentration not given, 48 h", "measurement": "cells in G2 phase", "result": "38.1%"}
{"Compound": "COc1ccc(Cn2c3cc(=O)n(Cc4cccc(Cl)n4)c(C)c3c(=O)n2-c2ccccn2)cc1", "organism": "human respiratory syncytial virus", "test system": "recombinant reporter virus", "conditions": "concentration not given, scale 0 to 100, together with: adenosine 11.1 µM", "measurement": "normalized viral replication", "result": 0}
{"Compound": "CCc1cc(CCC(=O)O)nc(-c2nc(=O)c3ccccc3s2)c1", "organism": "Acinetobacter baumannii", "assay": "cell growth, inhibitor", "test system": "NCTC 13424 XDR", "conditions": "5% CO2", "measurement": "EC50", "result": "> 100 µM"}
{"Compound": "CC(N)C(O)CCCCCCCCCCCCCCC(=O)CCCCCCCC(O)C(C)N (stereo not shown)", "organism": "Acinetobacter baumannii", "assay": "resazurin", "test system": "ATCC 19606", "conditions": "50 µM", "measurement": "growth inhibition", "result": "5 ± 12.4%"}
{"Compound": "CCCCCCCCC=CCCCCCCCCNC(=O)C(N)Cc1ccc(OP(=O)(O)COC(CO)Cn2ccc(N)nc2=O)cc1 (stereo not shown)", "organism": "varicella-zoster virus", "test system": "HFF, Ellen", "scale": "relative to: CC50 over EC50", "measurement": "selectivity index", "result": 50}
{"Compound": "Cc1cc(Cl)cc(S(C)=NC#N)c1NC(=O)c1cc(Br)nn1-c1ncccc1Cl (stereo not shown)", "organism": "Spodoptera litura", "assay": "leaf-dip", "test system": "third instar larvae", "conditions": "12.5 ppm, 48 h", "measurement": "mortality", "result": "50%"}
{"Compound": "CN(C(=O)c1ccn2ncc(-c3ccc(C(N)=O)cc3)c2c1)c1ccc(C#N)cn1", "organism": "Cryptosporidium parvum", "test system": "UGA1 Nluc, IFN-gamma knockout C57BL/6 mice, faeces", "conditions": "oral, 10 mg/kg daily, 264 h post infection, treatment days 3-9", "scale": "higher means more parasites", "measurement": "faecal Nluc luminescence", "result": "63 a.u. and 18 a.u. and 230 a.u. and 82 a.u. and 55 a.u."}
{"Compound": "CCOC(=O)C1(Cc2ccccc2)Oc2cc(F)ccc2N(Cc2ccccc2)C1=O (stereo not shown)", "organism": "Amaranthus retroflexus", "test system": "greenhouse", "conditions": "postemergence, 150 g ai/ha, 21 days", "measurement": "fresh weight inhibition", "result": "71.2 ± 3.9%"}
{"Compound": "CC(C)[C@H]1NC(=O)[C@H](Cc2ccc(O)cc2)NC(=O)[C@@H](C(C)C)NC(=O)[C@@H](C)NC(=O)[C@H](CO)NC(=O)[C@@H](Cc2c(-c3ccc(-c4ccc5ccccc5c4)cc3)[nH]c3ccccc23)NC(=O)[C@@H](CO)NC1=O", "organism": "Vibrio vulnificus", "assay": "broth dilution", "measurement": "MIC90", "result": "> 50 µM"}
{"Compound": "COC(=O)C1=CO[C@@H](C)[C@@H]2Cn3ccc4c5ccccc5nc-4c3C[C@H]12", "organism": "Plasmodium falciparum", "assay": "growth, [3H]-hypoxanthine uptake", "test system": "Dd2", "conditions": "96 h", "scale": "relative to: Dd2 IC50 over 3D7 IC50", "measurement": "resistance index", "result": 1.7}
{"Compound": "CCOC(=O)C1(Cc2ccc(C)cc2)Oc2cc(F)ccc2N(Cc2ccc(C)cc2)C1=O (stereo not shown)", "organism": "Amaranthus retroflexus", "assay": "fresh weight, greenhouse postemergence", "conditions": "postemergence, 150 g ai/ha, 21 days", "measurement": "inhibition", "result": "54.7 ± 3.11%"}
{"Compound": "CCc1nn(C)c2nc(-c3ccc(C(=O)O)cc3)nc(NCc3ccccc3)c12", "organism": "Cryptosporidium parvum", "test system": "HCT-8", "conditions": "EC90, 24 h", "scale": "relative to: DMSO control", "measurement": "parasite number", "result": "69.2% and 48.8% and 46% and 38.9%"}
{"Compound": "C[C@@H]1NC(=O)[C@@H](CCCN)NC(=O)[C@H](Cc2ccccc2)NC(=O)[C@@H](Cc2ccccc2)NC(=O)[C@H](Cc2ccccc2)NC(=O)[C@@H](CCCN)NC1=O", "organism": "Balamuthia mandrillaris", "assay": "parasite growth, ATP luminescence", "measurement": "IC90", "result": "> 20 µM"}
{"Compound": "CC(C)[C@H]1NC(=O)[C@H](Cc2ccccc2)NC(=O)[C@@H](C(C)C)NC(=O)[C@@H](C)NC(=O)[C@H](CO)NC(=O)[C@@H](Cc2c(-c3ccc(-c4ccccc4)c4ccccc34)[nH]c3ccccc23)NC(=O)[C@@H](CO)NC1=O", "organism": "Vibrio vulnificus", "assay": "broth dilution", "measurement": "MIC90", "result": "> 50 µM"}
{"Compound": "O=[N+]([O-])c1ccc(C2=[N+]([O-])c3ccccc3N3CCCN=C23)cc1", "organism": "Bacteroides fragilis", "assay": "microbial growth", "measurement": "MIC50", "result": "≤ 0.06 µg/mL"}
{"Compound": "C=CCN1C(=O)C(CC=C)(C(=O)OCC)Oc2cc(F)ccc21 (stereo not shown)", "organism": "Amaranthus retroflexus", "test system": "greenhouse", "conditions": "postemergence, 150 g ai/ha, 21 days", "measurement": "fresh weight inhibition", "result": "52.9 ± 4.57%"}
{"Compound": "C[C@@H]1NC(=O)[C@H](C)NC(=O)[C@@H](NC(=O)[C@@H]2CCCN2C(=O)[C@H](CC(N)=O)NC(=O)[C@H](Cc2ccc(O)cc2)NC(=O)[C@@H](N)Cc2cccc(CN)c2)CSC(=O)[C@H](Cc2cccc(F)c2)NC(=O)[C@H](Cc2ccc(O)cc2)NC1=O", "organism": "Staphylococcus epidermidis", "assay": "safranin staining", "test system": "RP62A", "conditions": "10 µM, 24 h, 37 °C", "scale": "relative to: DMSO control", "measurement": "biofilm inhibition", "result": "43.5%"}
{"Compound": "CC(C)[C@H]1NC(=O)[C@H](Cc2ccccc2)NC(=O)[C@@H](C(C)C)NC(=O)[C@@H](C)NC(=O)[C@H](CO)NC(=O)[C@@H](Cc2c(-c3ccc(C4CCCCC4)cc3)[nH]c3ccccc23)NC(=O)[C@@H](CO)NC1=O", "organism": "Vibrio vulnificus", "assay": "broth dilution", "measurement": "MIC90", "result": "> 50 µM"}
{"Compound": "C[N+]1=C2C(c3ccc([N+](=O)[O-])cc3)=[N+]([O-])c3ccccc3N2CCC1", "organism": "Bacteroides fragilis", "assay": "microbial growth", "measurement": "MIC50", "result": "0.5 µg/mL"}
{"Compound": "O=S(=O)(CCC(F)(F)F)N[C@H]1CC[C@H](Nc2ncc3c(-c4ccccn4)n[nH]c3n2)CC1", "organism": "Leishmania donovani", "assay": "cell growth", "test system": "promastigotes, LdBOB", "conditions": "life-cycle stage comparison", "measurement": "EC50", "result": "0.101 ± 0.008 µM"}
{"Compound": "CCOC(=O)C1(C)Oc2cc(F)ccc2N(C)C1=O (stereo not shown)", "organism": "Amaranthus retroflexus", "assay": "fresh weight, greenhouse postemergence", "conditions": "postemergence, 150 g ai/ha, 21 days", "measurement": "inhibition", "result": "68.8 ± 0.9%"}
{"Compound": "CCN(CC)CCO.O=C(O)C(Cl)Cl", "organism": "Amaranthus retroflexus", "assay": "herbicidal activity", "conditions": "15 mg/mL, 21 days, pre-emergence greenhouse", "measurement": "inhibition", "result": "0%"}
{"Compound": "CC[C@H](C)[C@H](NC(=O)[C@H](CCCCN)NC(=O)[C@H](CC(=O)O)NC(=O)[C@H](CC(C)C)NC(=O)[C@@H](NC(=O)[C@H](CC(N)=O)NC(=O)[C@H](CC(C)C)NC(=O)[C@@H](NC(=O)[C@H](Cc1ccccc1)NC(=O)[C@H](CCCCN)NC(=O)[C@H](CCCCN)NC(=O)CNC(=O)[C@H](C)NC(=O)[C@H](CC(N)=O)NC(=O)[C@H](CCCCN)NC(=O)[C@H](Cc1ccccc1)NC(=O)[C@H](CC(N)=O)NC(=O)[C@H](CCC(=O)O)NC(=O)[C@H](Cc1c[nH]c2ccccc12)NC(=O)[C@H](CC(C)C)NC(=O)[C@@H](N)CO)[C@@H](C)CC)[C@@H](C)CC)C(=O)N[C@@H](CCCNC(=N)N)C(=O)N[C@H]1CSSC[C@@H](C(=O)N[C@@H](CCCNC(=N)N)C(=O)N[C@H](C(=O)O)[C@@H](C)O)NC(=O)CNC(=O)CNC(=O)[C@H](C)NC(=O)[C@H](C(C)C)NC(=O)[C@H](CCCNC(=N)N)NC1=O", "organism": "all tested microorganisms", "measurement": "geometric mean MIC", "result": "24.7 µM"}
{"Compound": "CC[C@H](C)CCCCC(=O)N[C@@H](CCN)C(=O)N[C@H](C(=O)N[C@@H](CCN)C(=O)N[C@H]1CCNC(=O)[C@H]([C@@H](C)O)NC(=O)[C@H](CCN)NC(=O)[C@H](CCN)NC(=O)[C@H](CC(C)C)NC(=O)[C@@H](CC(C)C)NC(=O)[C@H](CCN)NC1=O)[C@@H](C)O", "organism": "Escherichia coli", "assay": "daily serial passaging", "test system": "ATCC 8739", "conditions": "highest sub-MIC, 27 days", "scale": "relative to: initial MIC", "measurement": "MIC fold change", "result": 1.63}
{"Compound": "COc1ccc(C2=[N+]([O-])c3ccccc3N3CCN=C23)cc1", "organism": "Bacteroides fragilis", "assay": "microbial growth", "measurement": "MIC50", "result": "≤ 0.06 µg/mL"}
{"Compound": "CC(C)CCCCCCCCC/C=C/C(=O)N[C@@H](CC(=O)O)C(=O)N[C@H]1CNC(=O)[C@@H]2CCCN2C(=O)[C@H](C(C)C)NC(=O)[C@@H](CN)NC(=O)CNC(=O)[C@H](CC(=O)O)NC(=O)CNC(=O)[C@H](CC(=O)O)NC(=O)[C@H](CC(=O)O)NC(=O)[C@H]2CCCCN2C1=O", "organism": "Enterococcus", "assay": "broth microdilution", "test system": "VRE 155, Mueller-Hinton broth, Mg2+ 10 mg/L", "conditions": "16 h, together with: Ca2+ 2.5 mM", "measurement": "MIC", "result": "2 µg/mL"}
{"Compound": "C[N+]1=C2C(c3ccc(Cl)cc3)=[N+]([O-])c3ccccc3N2CCC1", "organism": "Bacteroides fragilis", "assay": "microbial growth", "measurement": "MIC50", "result": "4 µg/mL"}
{"Compound": "FC(F)(F)c1cccc(CNc2nc(NC3CCN(Cc4ccccc4)CC3)c3nc[nH]c3n2)c1", "organism": "Cryptococcus neoformans", "assay": "RNA-seq, measured: FAB1 (CNAG_01209)", "conditions": "48 µg/mL, 3 h", "scale": "relative to: untreated", "measurement": "mRNA fold change", "result": 1.05}
{"note": "Repeated from above:"}
{"Compound": "C[N+]1=C2C(c3ccc([N+](=O)[O-])cc3)=[N+]([O-])c3ccccc3N2CCC1", "organism": "Bacteroides fragilis", "assay": "microbial growth", "measurement": "MIC50", "result": "0.5 µg/mL"}
